Measurements pooled from the literature.
“And” joins repeats or separate records; there may be more than shown. Numbers after ± are the reported error.
U2AF2: U2AF2 148-342 (Homo sapiens, UniProt P26368)
Sequence of UniProt P26368 (whole entry, looked up): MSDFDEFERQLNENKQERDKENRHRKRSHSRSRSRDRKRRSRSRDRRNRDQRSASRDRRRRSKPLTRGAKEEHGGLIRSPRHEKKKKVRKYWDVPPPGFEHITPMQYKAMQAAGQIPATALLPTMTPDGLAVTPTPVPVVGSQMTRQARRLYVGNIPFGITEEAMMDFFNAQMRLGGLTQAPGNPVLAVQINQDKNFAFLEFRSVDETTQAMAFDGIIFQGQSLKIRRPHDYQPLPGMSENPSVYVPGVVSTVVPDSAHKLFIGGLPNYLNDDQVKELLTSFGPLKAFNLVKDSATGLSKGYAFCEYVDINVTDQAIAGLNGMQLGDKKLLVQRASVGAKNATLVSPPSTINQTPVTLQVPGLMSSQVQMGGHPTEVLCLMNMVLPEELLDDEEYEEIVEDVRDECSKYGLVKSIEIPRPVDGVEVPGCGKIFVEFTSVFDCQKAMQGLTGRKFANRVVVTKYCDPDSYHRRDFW
B1: S100A9 (Homo sapiens, UniProt P06702); chain MTCKMSQLERNIETIINTFHQYSVKLGHPDTLNQGEFKELVRKDLQNFLKKENKNEKVIEHIMEDLDTNADKQLSFEEFIMLMARLTWASHEKMHEGDEGPGHHHKPGLGEGTP
B2: human suprabasin; sequence looked up; chain DDPIEKVIEGINRGLSNAEREVGKALDGINSGITHAGREVEKVFNGLSNMGSHTGKELDKGVQGLNHGMDKVAHEINHGIGQAGKEAEKLGHGVNNAAGQVGKEADKLIHHGVHHGANQAGSEAGKFGQGVDNAAGQAGNEAGRFGQGVHHAAGQAGNEAGRFGQGVHHAAGQAGNEAGRFGQGAHHGLSEGWKETEKFGQGIHHAAGQVGKEAEKFGQGAHHAAGQAGNEAGRFGQGVHHGLSEGWKETEKFGQGVHHTAGQVGKEAEKFGQGAHHAAGQAGNEAGRFGQGAHHAAGQAGNEAGRFGQGVHHGLSEGWKETEKFGQGVHHAASQFGKETEKLGHGVHHGVNEAWKEAEKFGQGVHHAASQVGKEEDRVVQGLHHGVSQAGREAGQFGHDIHHTAGQAGKEGDIAVHGVQPGVHEAGKEAGQFGQGVHHTLEQAGKEADKAVQGFHTGVHQAGKEAEKLGQGVNHAADQAGKEVEKLGQGAHHAAGQAGKELQNAHNGVNQASKEANQLLNGNHQSGSSSHQGGATTTPLASGASVNTPFINLPALWRSVANIMP
B3: racE T25N/S192D (Dictyostelium discoideum, UniProt Q23862); sequence looked up; chain MSEDQGSGATRVKLVVVGDGAVGKNCLLICYAQNDFPVDYVPTVFENYTATRKRGNEDIKVHLWDTAGQEEYDRLRPLSYPGADVVLLCFSTISQSSYEAIRDKWAPEVNHYIPDVPSILVGTKIDLREQQHPDPNSGKFEPITADMGISMQKQIKAKKYLEVSAKTRQGLEEVFSAAIEIVLESRGMDKKDQDGSSSASGVPSGDKPTKGKAGKKKSGCIIL
B4: human LCMT1; sequence looked up; chain MATRQRESSITSCCSTSSCDADDEGVRGTCEDASLCKRFAVSIGYWHDPYIQHFVRLSKERKAPEINRGYFARVHGVSQLIKAFLRKTECHCQIVNLGAGMDTTFWRLKDEDLLPSKYFEVDFPMIVTRKLHSIKCKPPLSSPILELHSEDTLQMDGHILDSKRYAVIGADLRDLSELEEKLKKCNMNTQLPTLLIAECVLVYMTPEQSANLLKWAANSFERAMFINYEQVNMGDRFGQIMIENLRRRQCDLAGVETCKSLESQKERLLSNGWETASAVDMMELYNRLPRAEVSRIESLEFLDEMELLEQLMRHYCLCWATKGGNELGLKEITY
B5: racE T25N/S192D/E180R/R186E (Dictyostelium discoideum, UniProt Q23862); sequence looked up; chain MSEDQGSGATRVKLVVVGDGAVGKNCLLICYAQNDFPVDYVPTVFENYTATRKRGNEDIKVHLWDTAGQEEYDRLRPLSYPGADVVLLCFSTISQSSYEAIRDKWAPEVNHYIPDVPSILVGTKIDLREQQHPDPNSGKFEPITADMGISMQKQIKAKKYLEVSAKTRQGLEEVFSAAIRIVLESEGMDKKDQDGSSSASGVPSGDKPTKGKAGKKKSGCIIL
Sequence of UniProt P02930 (whole entry, unmodified, looked up): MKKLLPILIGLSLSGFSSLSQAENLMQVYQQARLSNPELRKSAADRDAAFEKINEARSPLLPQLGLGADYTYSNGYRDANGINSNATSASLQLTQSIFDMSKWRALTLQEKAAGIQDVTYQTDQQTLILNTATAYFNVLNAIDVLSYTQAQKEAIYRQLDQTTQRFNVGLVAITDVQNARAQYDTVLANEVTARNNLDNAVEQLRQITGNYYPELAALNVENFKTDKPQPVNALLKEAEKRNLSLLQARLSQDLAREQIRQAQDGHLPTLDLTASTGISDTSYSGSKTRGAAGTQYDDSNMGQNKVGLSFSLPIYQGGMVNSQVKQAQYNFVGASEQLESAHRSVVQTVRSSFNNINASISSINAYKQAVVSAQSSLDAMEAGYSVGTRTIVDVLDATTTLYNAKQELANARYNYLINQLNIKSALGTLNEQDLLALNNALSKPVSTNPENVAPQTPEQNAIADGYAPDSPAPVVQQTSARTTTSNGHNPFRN
Sequence of UniProt P0A9A6 (whole entry, looked up): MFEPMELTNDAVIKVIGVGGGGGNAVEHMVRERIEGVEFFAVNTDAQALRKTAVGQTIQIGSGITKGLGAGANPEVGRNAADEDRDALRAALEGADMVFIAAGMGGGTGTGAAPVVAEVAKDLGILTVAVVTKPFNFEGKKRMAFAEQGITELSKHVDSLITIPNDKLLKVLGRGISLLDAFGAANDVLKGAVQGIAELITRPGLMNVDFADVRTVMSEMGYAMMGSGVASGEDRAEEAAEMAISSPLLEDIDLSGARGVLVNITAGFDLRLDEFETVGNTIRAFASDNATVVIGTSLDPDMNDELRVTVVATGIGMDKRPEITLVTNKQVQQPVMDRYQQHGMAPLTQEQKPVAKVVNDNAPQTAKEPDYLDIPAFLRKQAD
Sequence of UniProt P08588 (whole entry, looked up): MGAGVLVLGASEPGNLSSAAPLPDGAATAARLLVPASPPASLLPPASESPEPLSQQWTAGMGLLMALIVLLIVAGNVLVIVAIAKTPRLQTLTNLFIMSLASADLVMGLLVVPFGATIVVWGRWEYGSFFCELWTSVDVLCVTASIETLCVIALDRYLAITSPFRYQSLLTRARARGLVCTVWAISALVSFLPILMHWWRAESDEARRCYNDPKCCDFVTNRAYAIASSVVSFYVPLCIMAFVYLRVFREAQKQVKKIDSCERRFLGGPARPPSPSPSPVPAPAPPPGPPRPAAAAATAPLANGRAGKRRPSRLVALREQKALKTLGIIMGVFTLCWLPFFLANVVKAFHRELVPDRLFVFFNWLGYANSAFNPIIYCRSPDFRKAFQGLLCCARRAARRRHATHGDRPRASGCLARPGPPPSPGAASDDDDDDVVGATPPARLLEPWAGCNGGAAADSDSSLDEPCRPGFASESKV

Molecule | tested on | test | system | setting | scale | measurement | result
B1 (S100A9) | itself | AUC |  |  |  | Kd | 170 ± 30 µM
ftsZ (Escherichia coli, UniProt P0A9A6) | itself | filament formation |  | approximate |  | critical concentration | 1 µM
TolC mature monomer (Escherichia coli, UniProt P02930) | itself | SDS-PAGE band densitometry |  |  |  | Kd | 29.7 µM
PIP5K1B C110S/P163C/C411S, Alexa555 or Alexa647 label (Homo sapiens) | itself | smFRET |  | homodimer, together with: PI(4,5)P2 |  | dwell time | 0.14 ± 0.03 s
Aβ43 fibrils | itself | HPLC after sedimentation |  | 37 °C |  | critical concentration | 0.2 µM and 0.115 µM
MXAN_1565 GAF domain (Myxococcus xanthus) | itself | cross-linking |  |  |  | subunits per oligomer | 2
nucleosome octamer with 601 DNA (Homo sapiens, UniProt P0C0S8) | itself | FRET |  | unmodified nucleosome |  | kon | 4280 M⁻¹ s⁻¹
B2 (human suprabasin) | PP6C (human) | co-immunoprecipitation, IP-MS | CYB5R4 knockout cells | concentration not given | reference: CYB5R4 knockout over parental | log2 fold change | -0.48
CDH3 ectodomain, soluble (Xenopus) | itself | AUC |  | monomer-dimer fit, sedimentation equilibrium |  | Kd | 64 µM
Notch ankyrin domain (Drosophila) | itself | AUC |  | self-association model, poor fit |  | dimer Kd | 61300 µM
clcA C85A/H234C/L194A (Escherichia coli) | itself | SEC |  | 12 days, 4 °C |  | dimer decay half-life | 26.4 h
B3 (racE T25N/S192D) | itself | pull-down |  |  |  | binding | binds
ADRB1 (Homo sapiens, UniProt P08588) | itself | BRET |  | together with: HA-β1AR competitor, 0.5 µg | higher = weaker self-association | BRET50 | 1.9 GFP/Rluc ratio
Nur E63A (Streptomyces coelicolor) | itself | fluorescence polarisation |  |  |  | Kd | 15 ± 2 µM
B4 (human LCMT1) | CYB5R4 knockout human cells | PP4 interaction, 3xFLAG-PP4C IP-MS |  | concentration not given | reference: CYB5R4 KO over parental | log2 fold change | -8.27
FLS2 monomeric (Arabidopsis thaliana, UniProt Q9FL28) | itself | VA-TIRFM, single-particle tracking |  | in cells, together with: flg22 |  | association dwell time | 11 s
TCR Vα Vα domain (Mus musculus) | itself | NMR relaxation |  |  |  | Kd | 1000 ± 500 µM
B5 (racE T25N/S192D/E180R/R186E) | itself | pull-down |  |  |  | binding | binds
CUUCUAGUU (ssRNA) | U2AF2 | sequencing of bound RNA | RNA | motif only |  | Kd | 8.16 µM
CAMK2D F368A (Homo sapiens) | itself | mass photometry |  | 25 nM | higher = more dimers | dimers | 20%
CAAAUAUUC (ssRNA) | U2AF2 | sequencing of bound RNA | RNA | motif only |  | Kd | 1.6 µM
Pcdhgc3 EC1-EC4 (Mus musculus) | itself | AUC |  | wild type EC1-EC4 |  | Kd | 115 µM

For quick reference, copied from above:
Molecule | tested on | test | system | setting | scale | measurement | result
Notch ankyrin domain (Drosophila) | itself | AUC |  | self-association model, poor fit |  | dimer Kd | 61300 µM
TolC mature monomer (Escherichia coli, UniProt P02930) | itself | SDS-PAGE band densitometry |  |  |  | Kd | 29.7 µM
Nur E63A (Streptomyces coelicolor) | itself | fluorescence polarisation |  |  |  | Kd | 15 ± 2 µM
